Measurements of several laboratories.
Each line is one published result; not all experiments were run side by side. Values joined by “and” are separate records of one study, mostly repeats; a detail may differ. ± gives the spread as reported.
GLP1R: Glucagon-like peptide 1 receptor (GLP1R, Homo sapiens, UniProt P43220)
TRIM24 PHD-bromodomain: Transcription intermediary factor 1-alpha, PHD-bromodomain (TRIM24, Homo sapiens, UniProt O15164)
UniProt Q16774, sequence (whole entry, unmodified, looked up): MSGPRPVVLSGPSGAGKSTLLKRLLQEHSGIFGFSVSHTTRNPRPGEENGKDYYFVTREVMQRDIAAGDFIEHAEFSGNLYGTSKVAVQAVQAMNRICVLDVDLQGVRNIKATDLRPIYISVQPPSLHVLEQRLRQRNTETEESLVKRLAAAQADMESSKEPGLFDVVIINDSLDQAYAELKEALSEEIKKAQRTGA
UniProt O76090, sequence (whole entry, unmodified, looked up): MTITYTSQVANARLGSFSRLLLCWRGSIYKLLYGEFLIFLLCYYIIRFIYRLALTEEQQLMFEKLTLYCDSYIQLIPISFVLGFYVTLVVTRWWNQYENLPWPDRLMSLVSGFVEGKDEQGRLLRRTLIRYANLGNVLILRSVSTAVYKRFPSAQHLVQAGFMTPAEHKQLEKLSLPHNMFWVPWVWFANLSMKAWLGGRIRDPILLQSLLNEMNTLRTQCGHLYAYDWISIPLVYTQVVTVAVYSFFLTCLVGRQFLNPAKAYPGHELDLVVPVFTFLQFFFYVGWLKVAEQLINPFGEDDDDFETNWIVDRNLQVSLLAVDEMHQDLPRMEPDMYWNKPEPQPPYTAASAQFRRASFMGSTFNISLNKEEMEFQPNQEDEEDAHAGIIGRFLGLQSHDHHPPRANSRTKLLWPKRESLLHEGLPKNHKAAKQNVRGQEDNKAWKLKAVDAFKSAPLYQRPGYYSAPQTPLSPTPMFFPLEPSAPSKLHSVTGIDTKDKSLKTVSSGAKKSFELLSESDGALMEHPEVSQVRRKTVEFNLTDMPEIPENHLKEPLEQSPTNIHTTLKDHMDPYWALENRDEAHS
UniProt Q14680, sequence (whole entry, looked up): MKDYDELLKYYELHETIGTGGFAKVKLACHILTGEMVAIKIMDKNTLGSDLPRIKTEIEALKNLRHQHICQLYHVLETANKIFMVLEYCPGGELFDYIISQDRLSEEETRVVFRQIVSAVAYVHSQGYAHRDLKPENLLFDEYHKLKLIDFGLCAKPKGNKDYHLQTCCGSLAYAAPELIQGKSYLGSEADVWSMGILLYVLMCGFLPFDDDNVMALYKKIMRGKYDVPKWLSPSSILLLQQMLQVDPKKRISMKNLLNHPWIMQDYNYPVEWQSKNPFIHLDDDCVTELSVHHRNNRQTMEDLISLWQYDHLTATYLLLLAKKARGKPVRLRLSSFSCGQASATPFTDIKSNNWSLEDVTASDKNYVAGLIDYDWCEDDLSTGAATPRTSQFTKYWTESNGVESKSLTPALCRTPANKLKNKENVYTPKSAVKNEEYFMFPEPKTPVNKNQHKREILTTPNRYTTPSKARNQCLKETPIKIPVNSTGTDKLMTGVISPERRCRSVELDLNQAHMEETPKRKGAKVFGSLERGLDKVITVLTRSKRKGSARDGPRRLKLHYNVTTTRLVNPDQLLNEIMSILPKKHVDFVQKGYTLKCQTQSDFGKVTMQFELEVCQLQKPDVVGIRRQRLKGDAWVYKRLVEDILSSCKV
UniProt Q9Y3R4, sequence (whole entry, looked up): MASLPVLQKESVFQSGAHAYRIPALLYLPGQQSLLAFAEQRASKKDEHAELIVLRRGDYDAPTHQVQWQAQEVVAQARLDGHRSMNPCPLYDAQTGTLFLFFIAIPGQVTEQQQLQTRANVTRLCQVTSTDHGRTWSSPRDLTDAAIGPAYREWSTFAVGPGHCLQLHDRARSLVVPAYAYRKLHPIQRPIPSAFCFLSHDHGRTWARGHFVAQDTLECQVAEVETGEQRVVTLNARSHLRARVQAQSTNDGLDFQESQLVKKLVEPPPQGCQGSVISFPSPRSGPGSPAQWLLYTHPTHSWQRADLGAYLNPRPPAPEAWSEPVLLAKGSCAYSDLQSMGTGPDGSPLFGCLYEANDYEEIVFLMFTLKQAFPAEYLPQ
UniProt P03146, sequence (whole entry, looked up): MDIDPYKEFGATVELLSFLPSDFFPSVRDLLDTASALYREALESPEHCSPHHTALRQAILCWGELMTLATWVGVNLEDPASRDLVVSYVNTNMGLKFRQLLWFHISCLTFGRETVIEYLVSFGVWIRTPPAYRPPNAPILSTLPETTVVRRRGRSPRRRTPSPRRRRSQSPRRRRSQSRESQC
UniProt P02769, sequence (whole entry, looked up): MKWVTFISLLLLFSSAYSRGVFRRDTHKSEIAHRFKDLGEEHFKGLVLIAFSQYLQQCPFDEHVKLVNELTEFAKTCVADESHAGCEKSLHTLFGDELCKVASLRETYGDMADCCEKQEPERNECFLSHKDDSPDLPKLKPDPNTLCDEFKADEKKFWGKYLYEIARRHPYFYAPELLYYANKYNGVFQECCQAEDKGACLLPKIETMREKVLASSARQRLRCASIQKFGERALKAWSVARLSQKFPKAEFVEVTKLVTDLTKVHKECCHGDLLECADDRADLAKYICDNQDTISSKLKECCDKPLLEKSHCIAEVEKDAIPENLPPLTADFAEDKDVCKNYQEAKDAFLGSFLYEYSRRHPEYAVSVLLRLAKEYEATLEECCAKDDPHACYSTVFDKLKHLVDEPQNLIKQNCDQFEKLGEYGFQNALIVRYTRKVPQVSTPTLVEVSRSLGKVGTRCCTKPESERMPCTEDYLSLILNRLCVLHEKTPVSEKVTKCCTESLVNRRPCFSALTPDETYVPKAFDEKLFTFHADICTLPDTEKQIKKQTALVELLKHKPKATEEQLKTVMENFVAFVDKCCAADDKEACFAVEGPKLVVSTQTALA
UniProt Q08499, sequence (whole entry, unmodified, looked up): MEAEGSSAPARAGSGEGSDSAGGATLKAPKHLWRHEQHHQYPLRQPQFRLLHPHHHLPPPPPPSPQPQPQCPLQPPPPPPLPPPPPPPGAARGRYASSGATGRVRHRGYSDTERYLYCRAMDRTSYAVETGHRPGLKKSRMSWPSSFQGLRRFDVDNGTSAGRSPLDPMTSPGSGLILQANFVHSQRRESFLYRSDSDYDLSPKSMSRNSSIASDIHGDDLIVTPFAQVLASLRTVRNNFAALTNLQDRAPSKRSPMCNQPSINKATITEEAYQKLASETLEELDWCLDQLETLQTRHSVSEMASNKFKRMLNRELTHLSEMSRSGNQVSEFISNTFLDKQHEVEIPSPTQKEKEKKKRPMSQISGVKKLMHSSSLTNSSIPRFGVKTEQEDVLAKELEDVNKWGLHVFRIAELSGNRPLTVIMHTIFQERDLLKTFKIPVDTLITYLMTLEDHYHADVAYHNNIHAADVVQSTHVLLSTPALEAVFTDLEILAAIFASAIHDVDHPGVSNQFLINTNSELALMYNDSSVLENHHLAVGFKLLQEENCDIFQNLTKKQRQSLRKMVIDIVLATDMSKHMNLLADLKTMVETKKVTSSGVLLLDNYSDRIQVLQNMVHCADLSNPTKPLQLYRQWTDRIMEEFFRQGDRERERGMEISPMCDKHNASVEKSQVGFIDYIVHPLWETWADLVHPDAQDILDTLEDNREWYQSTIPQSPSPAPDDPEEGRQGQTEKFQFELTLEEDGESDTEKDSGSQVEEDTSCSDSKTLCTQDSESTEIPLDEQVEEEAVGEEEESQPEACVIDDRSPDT
UniProt Q15831, sequence (whole entry, looked up): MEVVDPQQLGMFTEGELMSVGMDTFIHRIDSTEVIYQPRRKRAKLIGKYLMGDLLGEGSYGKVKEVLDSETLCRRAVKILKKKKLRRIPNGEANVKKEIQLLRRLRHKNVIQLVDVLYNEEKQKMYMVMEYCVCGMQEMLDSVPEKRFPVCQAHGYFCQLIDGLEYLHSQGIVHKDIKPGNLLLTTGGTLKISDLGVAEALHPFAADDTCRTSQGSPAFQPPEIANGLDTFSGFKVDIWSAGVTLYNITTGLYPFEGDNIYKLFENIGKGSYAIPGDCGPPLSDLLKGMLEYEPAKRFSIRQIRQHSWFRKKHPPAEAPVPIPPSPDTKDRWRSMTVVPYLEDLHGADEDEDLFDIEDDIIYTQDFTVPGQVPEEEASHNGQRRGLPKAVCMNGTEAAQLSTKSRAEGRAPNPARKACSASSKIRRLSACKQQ
UniProt Q13263, sequence (whole entry, looked up): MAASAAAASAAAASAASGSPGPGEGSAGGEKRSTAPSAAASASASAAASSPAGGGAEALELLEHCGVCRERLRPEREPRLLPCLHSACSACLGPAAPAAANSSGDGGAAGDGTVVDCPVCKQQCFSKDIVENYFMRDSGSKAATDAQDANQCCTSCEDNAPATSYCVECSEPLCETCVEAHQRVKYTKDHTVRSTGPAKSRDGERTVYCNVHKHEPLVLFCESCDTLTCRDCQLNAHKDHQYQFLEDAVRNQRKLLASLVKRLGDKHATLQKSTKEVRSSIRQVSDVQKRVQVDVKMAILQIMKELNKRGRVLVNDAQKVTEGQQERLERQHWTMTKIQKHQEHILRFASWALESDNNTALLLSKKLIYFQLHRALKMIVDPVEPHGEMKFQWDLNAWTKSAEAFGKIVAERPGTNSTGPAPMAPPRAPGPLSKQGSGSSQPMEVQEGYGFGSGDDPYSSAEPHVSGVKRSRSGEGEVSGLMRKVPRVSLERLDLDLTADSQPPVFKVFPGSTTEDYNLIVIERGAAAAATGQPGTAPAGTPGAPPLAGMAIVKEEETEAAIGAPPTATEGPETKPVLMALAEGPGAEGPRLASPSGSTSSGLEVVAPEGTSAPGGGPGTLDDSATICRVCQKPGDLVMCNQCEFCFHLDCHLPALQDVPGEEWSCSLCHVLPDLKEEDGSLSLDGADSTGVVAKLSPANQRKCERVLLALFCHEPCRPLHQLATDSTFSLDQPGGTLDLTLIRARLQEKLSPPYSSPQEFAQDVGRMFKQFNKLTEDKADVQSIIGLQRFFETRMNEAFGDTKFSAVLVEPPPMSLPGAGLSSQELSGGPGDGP
UniProt Q16611, sequence (whole entry, looked up): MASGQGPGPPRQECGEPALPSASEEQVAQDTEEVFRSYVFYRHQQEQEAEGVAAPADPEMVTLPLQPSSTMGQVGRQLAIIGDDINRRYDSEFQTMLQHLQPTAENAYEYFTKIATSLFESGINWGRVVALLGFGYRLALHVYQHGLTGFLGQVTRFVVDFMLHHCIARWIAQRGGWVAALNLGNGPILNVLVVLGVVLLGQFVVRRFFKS

Cc1ncsc1-c1ccc(CNC(=O)[C@@H]2C[C@@H](O)CN2C(=O)[C@@H](NC(=O)CCCCCCCCCCCC(=O)NCCCCC#Cc2cccc(-c3nn(-c4nc(C(=O)O)cs4)c(CC4CC4)c3Cc3ccc(S(N)(=O)=O)cc3)c2)C(C)(C)C)cc1 — Dmax (L-lactate dehydrogenase B chain (LDHB, Homo sapiens, UniProt P07195); degrader, western blot; PANC-1; 48 h): 86 ± 7.7%
COc1cccc(-n2nc3c4cc(Cl)ccc4[nH]cc-3c2=O)c1 — efficacy (Gamma-aminobutyric acid receptor subunit alpha-6/beta-3, with delta subunit (Gabra6/Gabrb3, Rattus norvegicus, UniProt P30191+P63079); ion current, modulator, two-electrode voltage clamp; 3 µM, α6β3δ receptor, with: GABA EC3-10): 118.3 ± 0.2%
CC[C@H](C)[C@H](NC(=O)[C@H](Cc1ccccc1)NC(=O)[C@H](CCC(=O)O)NC(=O)[C@H](CCCNC(=N)N)NC(=O)[C@H](C)NC(=O)[C@H](C)NC(=O)[C@H](CCC(N)=O)NC(=O)[C@H](CCC(=O)O)NC(=O)[C@H](CCC(=O)O)NC(=O)[C@H](CC(C)C)NC(=O)[C@H](Cc1ccc(O)cc1)NC(=O)[C@H](CO)NC(=O)[C@H](CO)NC(=O)[C@@H](NC(=O)[C@H](CC(=O)O)NC(=O)[C@H](CO)NC(=O)[C@@H](NC(=O)[C@H](Cc1ccccc1)NC(=O)[C@@H](NC(=O)CNC(=O)[C@H](CCC(=O)O)NC(=O)[C@H](C)NC(=O)CCc1cnc[nH]1)[C@@H](C)O)[C@@H](C)O)C(C)C)C(=O)N[C@@H](C)C(=O)N[C@@H](Cc1c[nH]c2ccccc12)C(=O)N[C@@H](CC(C)C)C(=O)N[C@H](C(=O)N[C@@H](CCCNC(=N)N)C(=O)NCC(=O)N[C@@H](CCCNC(=N)N)C(=O)N[C@@H](CCCCNC(=O)COCCOCCNC(=O)COCCOCCNC(=O)CC[C@H](NC(=O)CCCCCCCCCCCCCCCCC(=O)O)C(=O)O)C(=O)NCC(=O)NCC(=O)N[C@@H](CO)C(=O)N[C@@H](CCCCNc1c(NCCCCCN(O)C(=O)CCC(=O)NCCCCCN(O)C(=O)CCC(=O)NCCCCCN(O)C(C)=O)c(=O)c1=O)C(=O)NCC(=O)NCC(=O)N[C@@H](CO)C(=O)N[C@@H](CCCCNc1c(NCCCCCN(O)C(=O)CCC(=O)NCCCCCN(O)C(=O)CCC(=O)NCCCCCN(O)C(C)=O)c(=O)c1=O)C(=O)NCC(=O)NCC(=O)N[C@@H](CO)C(=O)N[C@@H](CCCCNc1c(NCCCCCN(O)C(=O)CCC(=O)NCCCCCN(O)C(=O)CCC(=O)NCCCCCN(O)C(C)=O)c(=O)c1=O)C(=O)O)C(C)C — fold potency loss (GLP1R; agonist, CRE luciferase reporter; BHK cells; metal-free DFO conjugate, with: 0% HSA; relative to: parent peptide): 6.8
NS(=O)(=O)c1ccc(Nc2nc(-c3ccc(F)cc3)c3ccccc3n2)cc1 — remaining binding (TRIM24 PHD-bromodomain; BROMOscan; 1000 nM; relative to: untreated control, lower = stronger binding): 74%
CC[C@@H]1[C@H](F)C(=O)N[C@@H]1COc1nccc2cc(C(N)=O)c(OC)cc12 — inhibition (Serine/threonine-protein kinase STK11 (STK11, Homo sapiens, UniProt Q15831); ATP-site probe binding, ActivX profiling; THP-1 cell lysate; 0.04 mM, Lys2 site): 12.2%
Cc1cccc(N2CC(C(=O)O)CC2=O)c1 (stereo not drawn) — log fold enrichment (Transcription intermediary factor 1-beta, PHD-bromodomain (TRIM28, Homo sapiens, UniProt Q13263); binding, affinity selection mass spectrometry; relative to: other proteins in batch): -0.0192
Nc1ccc(C(=O)O)cc1 — current density (BEST1, with wild-type BEST1 (Homo sapiens, UniProt O76090, Q293K); ion current, whole-cell patch clamp; HEK293 co-expressing mutant and wild-type; concentration not given, voltage 100 mV): 16.5 pA/pF and 25.4 pA/pF and 15.8 pA/pF and 27.6 pA/pF and 42.5 pA/pF and 9.63 pA/pF
COc1cc(C[C@H]2C(=O)OC[C@@H]2Cc2ccc(OC)c(OC)c2)ccc1O — -TΔS (3',5'-cyclic-AMP phosphodiesterase 4D (PDE4D, Homo sapiens, UniProt Q08499); isothermal titration calorimetry): 1.13 ± 0.402 kcal/mol
NC(N)=NN=C(C=Cc1ccc([N+](=O)[O-])o1)C=Cc1ccc([N+](=O)[O-])o1 — luminescence signal reduction (NanoBiT HiBiT/LgBiT luciferase; inhibitor, HiBiT luminescence counterscreen; conditioned medium only; 1.66 µM, 24 h; relative to: vehicle): -5.07%
CCCCCCCCCCCCCCCCCCc1ccc(O)cc1 — binding entropy change (Albumin (ALB, Bos taurus, UniProt P02769); van't Hoff analysis; concentration not given, 310.15 K): 62.4 J/mol/K
Nc1nc2c(ncn2[C@@H]2O[C@H](COP(=O)(O)O)[C@@H](O)[C@H]2O)c(=O)[nH]1 — reaction rate (GUK1 (Homo sapiens, UniProt Q16774, T83A); enzyme activity, NADH-coupled; 2000 µM): 33.7 s⁻¹ and 30.7 s⁻¹ and 32.5 s⁻¹
CCOC(=O)C1=C(CN2CCC[C@@H]2C(=O)Nc2cccc(B(O)O)c2)NC(c2nccs2)=N[C@H]1c1ccc(F)cc1Br — intracellular capsid protein level (Capsid protein (C, Hepatitis B virus genotype D subtype ayw, UniProt P03146); immunoblot; HepG2 expressing HA-HBc, Hepatitis B virus; concentration not given, 3 days, non-toxic concentrations): decreased
CCC1(O)CCCN(C(=O)c2ccc(-c3ccc(F)c(NC(=O)CCl)c3)cc2)C1 (stereo not drawn) — protein adduct (DNA dC->dU-editing enzyme APOBEC-3A (Homo sapiens, UniProt P31941); covalent modifier, intact protein mass spectrometry, measured: adduct +26691 Da; 25 µM, 1 h, 1-fold molar excess): 0%
CC[C@H](C)[C@H](NC(=O)[C@H](C)NC(=O)[C@H](CC(=O)O)NC(C)=O)C(=O)N[C@H](C(=O)N[C@@H](CCC(N)=O)C(=O)N[C@@H](CCSC)C(=O)N[C@H](C(=O)N[C@H](C(=O)N[C@@H](CCC(=O)O)C(=O)N[C@@H](CC(C)C)C(=O)N[C@@H](CC(C)C)C(=O)N[C@@H](CCCCN)C(=O)N[C@@H](CCCNC(=N)N)C(=O)N[C@H](C(=O)NCC(=O)N[C@@H](CC(=O)O)C(=O)N[C@@H](CCC(N)=O)C(=O)N[C@@H](Cc1c[nH]c2ccccc12)C(=O)N[C@@H](CCC(=O)O)C(=O)N[C@@H](CCC(=O)O)C(=O)N[C@@H](CCC(=O)O)C(=O)N[C@@H](CCC(N)=O)C(=O)N[C@@H](CO)C(=O)N[C@@H](CC(C)C)C(=O)N[C@@H](C)C(N)=O)C(C)C)C(C)C)[C@@H](C)CC)[C@@H](C)CC — kon (Bcl-2 homologous antagonist/killer (BAK1, Homo sapiens, UniProt Q16611); binding, bio-layer interferometry; pH 7.5, 2% DMSO): 387 M⁻¹ s⁻¹
COc1cc(F)ccc1-c1ncnc(Nc2cccc(C[S@](C)(=N)=O)c2)n1 — remaining activity (Maternal embryonic leucine zipper kinase (MELK, Homo sapiens, UniProt Q14680); kinase activity; 10 µM, with: 10 µM ATP): 82%
[N-]=[N+]=NCC(=O)N[C@H]1[C@H]([C@H](O)[C@H](O)CO)O[C@@](O[C@H]2[C@@H](O)[C@@H](CO)O[C@@H](Oc3ccc([N+](=O)[O-])cc3)[C@@H]2O)(C(=O)O)C[C@@H]1O — sialic acid release (Sialidase-2 (Homo sapiens, UniProt Q9Y3R4); substrate; 0.3 mM, 30 min, pH 5.0, 37 °C): 83%
O=c1nc(SCc2cc(F)cc(C(F)(F)F)c2)nc(SCc2ccc3sccc3c2)[nH]1 — mean linear DNA (DNA topoisomerase 2-alpha (TOP2A, Homo sapiens, UniProt P11388); DNA cleavage; 31.25 µM): 3.89%
OC1OC[C@H](O)[C@H](O)[C@H]1O (mixture of isomers) — Kd ratio (uncharacterized protein (Pelagibacter ubique, UniProt Q4FMK2); binding, isothermal titration calorimetry; Candidatus Pelagibacter ubique; relative to: compared with D-glucose): > 9000 fold
Cc1cc2c(cc1N1C(=O)c3cccc4c(Cl)ccc(c34)C1=O)n(C)c(=O)n2C — ΔTm (TRIM24 PHD-bromodomain; thermal shift; 10 µM): 0.1 °C
NCCS(=O)(=O)O — normalised MST signal (Sodium- and chloride-dependent taurine transporter (SLC6A6, Homo sapiens, UniProt P31641, Y138A); binding, microscale thermophoresis; 244 nM, room temperature, with: 50 nM labelled protein; higher = more binding): 0.0317
COc1cc(Nc2ncc3c(n2)-c2ccc(Cl)cc2C(c2c(F)cccc2OC)=NC3)ccc1C(=O)O — remaining activity (ALK; kinase activity; 1 µM): 83%
COc1cc(-c2cc(C(C)=O)n3ccccc23)c(OC)cc1Cn1ccnc1 — ΔTm (Transcription intermediary factor 1-alpha (TRIM24, Homo sapiens, UniProt O15164)): 0.1 °C
CCN1CCC[C@H]1CNC(=O)c1c(O)c(Cl)cc(Cl)c1OC — log2 fold change (Adhesion G-protein coupled receptor D1 (ADGRD1, Homo sapiens, UniProt Q6QNK2); β-arrestin recruitment, TANGO luminescence, measured: GPR133; concentration not given; relative to: basal luminescence): 0.586
CC[C@H](C)[C@H](NC(=O)[C@H](Cc1ccccc1)NC(=O)[C@H](CCC(=O)O)NC(=O)[C@H](CCCNC(=N)N)NC(=O)[C@H](C)NC(=O)[C@H](C)NC(=O)[C@H](CCC(N)=O)NC(=O)[C@H](CCC(=O)O)NC(=O)[C@H](CCC(=O)O)NC(=O)[C@H](CC(C)C)NC(=O)[C@H](Cc1ccc(O)cc1)NC(=O)[C@H](CO)NC(=O)[C@H](CO)NC(=O)[C@@H](NC(=O)[C@H](CC(=O)O)NC(=O)[C@H](CO)NC(=O)[C@@H](NC(=O)[C@H](Cc1ccccc1)NC(=O)[C@@H](NC(=O)CNC(=O)[C@H](CCC(=O)O)NC(=O)[C@H](C)NC(=O)CCc1cnc[nH]1)[C@@H](C)O)[C@@H](C)O)C(C)C)C(=O)N[C@@H](C)C(=O)N[C@@H](Cc1c[nH]c2ccccc12)C(=O)N[C@@H](CC(C)C)C(=O)N[C@H](C(=O)N[C@@H](CCCCNc1c(NCCCCCN(O)C(=O)CCC(=O)NCCCCCN(O)C(=O)CCC(=O)NCCCCCN(O)C(C)=O)c(=O)c1=O)C(=O)NCC(=O)N[C@@H](CCCNC(=N)N)C(=O)N[C@@H](CCCCNC(=O)COCCOCCNC(=O)COCCOCCNC(=O)CC[C@H](NC(=O)CCCCCCCCCCCCCCCCC(=O)O)C(=O)O)C(=O)NCC(=O)NCC(=O)N[C@@H](CO)C(=O)N[C@@H](CCCCNc1c(NCCCCCN(O)C(=O)CCC(=O)NCCCCCN(O)C(=O)CCC(=O)NCCCCCN(O)C(C)=O)c(=O)c1=O)C(=O)O)C(C)C — fold potency loss (GLP1R; agonist, CRE luciferase reporter; BHK cells; metal-free DFO conjugate, with: 1% HSA; relative to: parent peptide): 4
CN1CCN(c2cc(-c3ccncc3)c(-c3ccc4ccccc4c3)nn2)CC1 — activation (Gastrin-releasing peptide receptor (GRPR, Homo sapiens, UniProt P30550); agonist, FLIPR; 12.5 µM): -1.5%
Cc1ncsc1-c1ccc(CNC(=O)[C@@H]2C[C@H](O)CN2C(=O)[C@@H](NC(=O)C2(F)CC2)C(C)(C)C)c(OCCOc2ccc(CN3CCN(c4cc(-c5ccccc5O)nnc4N)CC3)cc2)c1 — cooperativity factor alpha (SWI/SNF-related matrix-associated actin-dependent regulator of chromatin subfamily A member 4, bromodomain (SMARCA4, Homo sapiens, UniProt P51532); ternary complex binding, TR-FRET competition; with: VCB complex): 1
CC[C@H](C)[C@H](NC(=O)[C@H](Cc1ccccc1)NC(=O)[C@H](CCC(=O)O)NC(=O)[C@H](CCCNC(=N)N)NC(=O)[C@H](C)NC(=O)[C@H](C)NC(=O)[C@H](CCC(N)=O)NC(=O)[C@H](CCC(=O)O)NC(=O)[C@H](CCC(=O)O)NC(=O)[C@H](CC(C)C)NC(=O)[C@H](Cc1ccc(O)cc1)NC(=O)[C@H](CO)NC(=O)[C@H](CO)NC(=O)[C@@H](NC(=O)[C@H](CC(=O)O)NC(=O)[C@H](CO)NC(=O)[C@@H](NC(=O)[C@H](Cc1ccccc1)NC(=O)[C@@H](NC(=O)CNC(=O)[C@H](CCC(=O)O)NC(=O)[C@H](C)NC(=O)CCc1cnc[nH]1)[C@@H](C)O)[C@@H](C)O)C(C)C)C(=O)N[C@@H](C)C(=O)N[C@@H](Cc1c[nH]c2ccccc12)C(=O)N[C@@H](CC(C)C)C(=O)N[C@H](C(=O)N[C@@H](CCCCNC(=O)COCCOCCNC(=O)COCCOCCNC(=O)CC[C@H](NC(=O)CCCCCCCCCCCCCCCCC(=O)O)C(=O)O)C(=O)NCC(=O)N[C@@H](CCCNC(=N)N)C(=O)N[C@@H](CCCCNc1c(NCCCCCN(O)C(=O)CCC(=O)NCCCCCN(O)C(=O)CCC(=O)NCCCCCN(O)C(C)=O)c(=O)c1=O)C(=O)NCC(=O)NCC(=O)N[C@@H](CO)C(=O)N[C@@H](CCCCNc1c(NCCCCCN(O)C(=O)CCC(=O)NCCCCCN(O)C(=O)CCC(=O)NCCCCCN(O)C(C)=O)c(=O)c1=O)C(=O)NCC(=O)NCC(=O)N[C@@H](CO)C(=O)N[C@@H](CCCCNc1c(NCCCCCN(O)C(=O)CCC(=O)NCCCCCN(O)C(=O)CCC(=O)NCCCCCN(O)C(C)=O)c(=O)c1=O)C(=O)NCC(=O)NCC(=O)N[C@@H](CO)C(=O)N[C@@H](CCCCNc1c(NCCCCCN(O)C(=O)CCC(=O)NCCCCCN(O)C(=O)CCC(=O)NCCCCCN(O)C(C)=O)c(=O)c1=O)C(=O)O)C(C)C — fold potency loss (GLP1R; agonist, CRE luciferase reporter; BHK cells; metal-free DFO conjugate, with: 0% HSA; relative to: parent peptide): 5.3

Excerpt of the above:
Cc1ncsc1-c1ccc(CNC(=O)[C@@H]2C[C@@H](O)CN2C(=O)[C@@H](NC(=O)CCCCCCCCCCCC(=O)NCCCCC#Cc2cccc(-c3nn(-c4nc(C(=O)O)cs4)c(CC4CC4)c3Cc3ccc(S(N)(=O)=O)cc3)c2)C(C)(C)C)cc1 — Dmax (L-lactate dehydrogenase B chain (LDHB, Homo sapiens, UniProt P07195); degrader, western blot; PANC-1; 48 h): 86 ± 7.7%
